Results of several laboratories.
A part holds a random share of what one study measured. Changes are numbered by the printed parent chain.

Set 1 — method: RNA Bind-n-Seq; molecule type: RNA; sample: in vitro; tested at: 365 nM; relative to: no-protein control; reading: higher = stronger binding; measurement: RBNS enrichment (R)
Target: RNA binding protein fox-1 homolog 2, RRM domain, GST-SBP tag (RBFOX2, Homo sapiens, UniProt O43251-10, residues 100-194)
Setting: natural RNA segment, single round, ends assumed
Shared flanks, not repeated: GGGAGUUCUACAGUCCGACGAUC … UGGAAUUCUCGGGUGCCAA
Target sequence (chain): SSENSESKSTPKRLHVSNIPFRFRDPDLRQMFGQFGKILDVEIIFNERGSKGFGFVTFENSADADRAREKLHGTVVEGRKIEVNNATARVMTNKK
GCGGAGGUCCCCAGUGGCUGAGCAAACAGCCCCUUCUCUCGCUUUGGGUCUUUUUUUUGUUUCUUUCUUAAAGCCACUUUAGUGAGAAGCAGGUACCAAGCCUCAGGGUG: 0.237
UGAACGAACGAACGAACGAAUGAAAACACACACAAAAUGUUUCAAGUUCCCCUAAAAUAUGACCCACUUGUUCCGGGUCUAAGGCAGAAAAGAGACGCAGAAUAGCCAAA: 0.784
AGAGUUUAAGUGUUUGCUCUUUCCCCGAAGUCUUUAAAGGACCUUGAAGCAGGUCACCAUGCUUGCAAAUUAAGUUUCAGCAGCUCUACCUCCUGGCAGAAGGACUGAGU: 0.237
UAACUAAGUAGCAUUUAAAAUCAAGAUAGAGCAUUCCUUCUUGUAUCAGUGGGGCAGUGUUACCAUAAACACGGUGUAUAUGUUGUUAAACCCUAUGAAGAGUAACAGUG: 0.566
CCACGUCUCUGCCUCCUAAAUUCCUGUAUGGACUUGAGAUGGCUUCAUUGAAAAACCACACGGCAGAUGAACAACCUAUGGCCAAAACGUCCAAUAAAUGUCUCUACCGC: 0.304
GCCAGGGAACUCUUCUCCUCGCGGGGGACUUGGGAUGGCCAUCAGACCUUCUAGGGUCUGGCUGGGGUCAUCCUAGGUAUGGGUGACCGUCCCUGAGACAUAAGCGAGGU: 0.217
AGUUGGCAAAGCACUGGGUAUCUUGUGCGGCUGCCGUGGAAGGCGGCCCUGCUCGAUGCAGGGUCUGCAGUGGCCUGAGGGCAGCCAGGCACUGCAUGCCUGUCUCCUUA: 0.633
AGGAUUUGAACCGAGCAGCCAAUCUUUCCAGCCCUCCCCUACCGACCUCUGCCUGGAGACGCAGCAGCCUGUGUCCUCCAGGGCCUCUGGUUUGUUGUAUUAUAGUAUAU: 0.343

Set 2 — method: universal PBM; molecule type: double-stranded DNA, one strand shown; sample: in vitro; tested at: 600 nM; reading: higher = stronger binding; measurement: E-score
Target: Sal-like protein 4, full length isoform A (SALL4, Homo sapiens, UniProt Q9UJQ4, residues 1-1053)
Sequence of UniProt Q9UJQ4 (whole entry, looked up): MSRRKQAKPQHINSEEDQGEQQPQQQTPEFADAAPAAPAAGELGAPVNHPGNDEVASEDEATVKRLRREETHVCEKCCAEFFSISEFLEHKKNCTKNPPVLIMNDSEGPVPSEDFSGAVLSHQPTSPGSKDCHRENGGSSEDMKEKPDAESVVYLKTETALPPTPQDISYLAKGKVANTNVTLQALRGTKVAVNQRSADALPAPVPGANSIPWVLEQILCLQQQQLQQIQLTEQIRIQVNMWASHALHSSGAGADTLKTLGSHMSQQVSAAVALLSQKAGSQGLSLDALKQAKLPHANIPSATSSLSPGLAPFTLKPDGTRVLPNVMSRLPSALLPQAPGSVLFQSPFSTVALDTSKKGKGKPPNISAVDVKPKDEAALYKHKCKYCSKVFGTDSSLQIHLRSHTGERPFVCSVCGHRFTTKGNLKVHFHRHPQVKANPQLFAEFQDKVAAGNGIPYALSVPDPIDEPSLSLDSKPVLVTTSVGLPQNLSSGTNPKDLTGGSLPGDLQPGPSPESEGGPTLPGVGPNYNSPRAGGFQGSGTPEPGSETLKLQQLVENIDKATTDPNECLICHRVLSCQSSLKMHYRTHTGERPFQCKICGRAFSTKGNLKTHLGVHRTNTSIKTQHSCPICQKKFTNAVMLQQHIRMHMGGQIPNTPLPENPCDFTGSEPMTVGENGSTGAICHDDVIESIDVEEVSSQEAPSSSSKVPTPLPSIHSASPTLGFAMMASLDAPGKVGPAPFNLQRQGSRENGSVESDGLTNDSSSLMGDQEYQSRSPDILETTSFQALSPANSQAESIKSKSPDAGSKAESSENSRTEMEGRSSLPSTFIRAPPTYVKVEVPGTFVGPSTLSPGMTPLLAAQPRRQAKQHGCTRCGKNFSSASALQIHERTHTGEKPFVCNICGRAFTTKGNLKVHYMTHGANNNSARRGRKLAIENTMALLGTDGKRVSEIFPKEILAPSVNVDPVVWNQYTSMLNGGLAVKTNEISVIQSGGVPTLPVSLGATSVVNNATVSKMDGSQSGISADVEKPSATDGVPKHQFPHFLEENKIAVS
Setting: 8-mer, flanks averaged, mean of replicates
GAGCAAAA: 0.0055
CCCACCTA: -0.0501
CGACCTGA: -0.173
AGTAGAAG: -0.0571
CAGATCTA: 0.0565
AGCATGCT: -0.136
AAGGACTA: 0.107
CCACATCG: -0.133
CCTATGCA: 0.155
AGGGGCGC: -0.288
CCTTAGCC: -0.133
GGAAGAAA: 0.143
CCTGTTAA: -0.00639
CCATCCCG: -0.342
CGAGCTAC: -0.0713
CGTACTAC: 0.0348
TACTTCCA: 0.0614
CCAAGAAG: -0.0517
CGAAGGCG: -0.171
CCCACTTC: -0.0761
AGACTTCA: 0.022
AAAAAAAT: 0.377
AAGGACGC: -0.16
AAATAATG: 0.332
CTCCGACA: -0.0576

Set 3 — method: DHFR PCA, deep sequencing; sample: yeast; together with: (+)-ABA 0.032 µM; relative to: wild-type fitted maximum; reading: higher = stronger binding; measurement: relative binding score
Target: ABI1, truncated, D143A, DHFR fusion (Arabidopsis thaliana)
Setting: methotrexate growth selection, single substitutions
Starting sequence: PYL1, truncated, DHFR fusion (Arabidopsis thaliana); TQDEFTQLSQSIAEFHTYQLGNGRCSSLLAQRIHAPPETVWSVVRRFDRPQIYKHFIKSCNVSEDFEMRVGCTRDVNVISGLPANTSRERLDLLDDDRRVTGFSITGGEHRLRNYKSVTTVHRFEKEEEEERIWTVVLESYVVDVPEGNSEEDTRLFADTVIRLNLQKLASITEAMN; partner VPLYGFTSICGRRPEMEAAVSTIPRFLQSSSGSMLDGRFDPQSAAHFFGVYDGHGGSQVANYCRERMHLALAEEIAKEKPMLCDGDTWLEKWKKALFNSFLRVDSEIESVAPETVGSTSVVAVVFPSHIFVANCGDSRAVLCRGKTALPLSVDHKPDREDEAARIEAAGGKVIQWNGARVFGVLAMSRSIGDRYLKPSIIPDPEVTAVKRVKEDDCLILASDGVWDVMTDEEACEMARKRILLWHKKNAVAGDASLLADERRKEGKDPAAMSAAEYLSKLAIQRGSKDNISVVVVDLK
R24F: -0.63%
I105G: -2.08%
T101N: -2.13%
E67G: 4.32%
Q167M: 19.3%
N61C: 24%
V161N: 20.3%
H122N: 7.26%
V78W: 80%
S26W: -0.466%
R49P: 7.7%
D75A: 6.23%
K54L: -6.39%

Set 4 — target: CCNE1, cyclin fold, Cln2 fusion (human); method: yeast growth competition, sequencing; sample: yeast; setting: strong parent motif; relative to: not given; reading: higher = stronger binding; measurement: normalised enrichment score
Starting sequence: PKN2 docking peptide (human); VSAVRKLDFSDTM
T12Q: 5.31
A3S: 1.97
D11N: 5.01
F9A: 0.014
R5P: 0.399
A3N: 0.208
S2I: 3.72
T12E: 5.46
D8Y: 4.71
D8P: 0.685

Set 5 — method: protein binding microarray; molecule type: double-stranded DNA, one strand shown; sample: in vitro; tested at: not given; relative to: not given; reading: higher = stronger binding; measurement: E-score
Target: Histone acetyltransferase KAT6A, both winged helices, GST fusion (KAT6A, Homo sapiens, UniProt Q92794, residues 1-181)
Setting: 8-mer, flanks averaged, mean of 2 arrays, mostly near background
Residues (chain): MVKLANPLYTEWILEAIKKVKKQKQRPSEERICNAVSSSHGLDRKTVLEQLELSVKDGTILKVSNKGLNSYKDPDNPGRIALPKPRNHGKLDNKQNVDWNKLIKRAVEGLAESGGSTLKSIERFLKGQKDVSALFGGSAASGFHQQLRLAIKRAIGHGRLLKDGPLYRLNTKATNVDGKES
ACCAGAGT: -0.0362
AATATCAT: 0.0687
ATCCCCCC: -0.185
TGCGGTAA: 0.209
AGCGAGGG: -0.0798
AAAGATGA: -0.191
ACCCGTAC: 0.235
ACCAGGAG: -0.143
ATTTGGCC: -0.0128
GAATCTTA: -0.0721
ATTGTAGC: -0.0326
CGGTGAAC: 0.128
CTCTAAGA: -0.0127
ATTAGGAA: -0.0892
AGGGATTC: -0.126
AACACACA: -0.13
TCTCCCAA: -0.114
ACGTGATG: -0.111
AAAAGGCG: 0.0912
ATTCGGTA: 0.12
CATATTGG: -0.202
AGCACCGG: 0.155
AGTAAACC: -0.0123
GGGCCCAA: -0.245
ACTATTAG: -0.127

Set 6 — method: Sort-seq; measured: YFP reporter; sample: E. coli; setting: PhoQ-PhoP variant library; together with: 10 µM Mg2+; relative to: high Mg2+ state; reading: higher = stronger signaling; measurement: fold induction
Substance: PhoQ, residues 284 288 289 292 302 303 ASTSDA
PhoP, residues 12 14 15 18 19 LHHYF (Escherichia coli, UniProt P23836): 9.87
PhoP, residues 12 14 15 18 19 VGHWL (Escherichia coli, UniProt P23836): 9.29
PhoP, residues 12 14 15 18 19 TPWTL (Escherichia coli, UniProt P23836): 4.72
PhoP, residues 12 14 15 18 19 NFFVT (Escherichia coli, UniProt P23836): 13.4
